Assay results from different studies.
± marks the error that the study gave.
USP16 ZnF-UBD domain: Ubiquitin carboxyl-terminal hydrolase 16, ZnF-UBD domain (USP16, Homo sapiens, UniProt Q9Y5T5)
UniProt Q9Y5T5, sequence (whole entry, looked up): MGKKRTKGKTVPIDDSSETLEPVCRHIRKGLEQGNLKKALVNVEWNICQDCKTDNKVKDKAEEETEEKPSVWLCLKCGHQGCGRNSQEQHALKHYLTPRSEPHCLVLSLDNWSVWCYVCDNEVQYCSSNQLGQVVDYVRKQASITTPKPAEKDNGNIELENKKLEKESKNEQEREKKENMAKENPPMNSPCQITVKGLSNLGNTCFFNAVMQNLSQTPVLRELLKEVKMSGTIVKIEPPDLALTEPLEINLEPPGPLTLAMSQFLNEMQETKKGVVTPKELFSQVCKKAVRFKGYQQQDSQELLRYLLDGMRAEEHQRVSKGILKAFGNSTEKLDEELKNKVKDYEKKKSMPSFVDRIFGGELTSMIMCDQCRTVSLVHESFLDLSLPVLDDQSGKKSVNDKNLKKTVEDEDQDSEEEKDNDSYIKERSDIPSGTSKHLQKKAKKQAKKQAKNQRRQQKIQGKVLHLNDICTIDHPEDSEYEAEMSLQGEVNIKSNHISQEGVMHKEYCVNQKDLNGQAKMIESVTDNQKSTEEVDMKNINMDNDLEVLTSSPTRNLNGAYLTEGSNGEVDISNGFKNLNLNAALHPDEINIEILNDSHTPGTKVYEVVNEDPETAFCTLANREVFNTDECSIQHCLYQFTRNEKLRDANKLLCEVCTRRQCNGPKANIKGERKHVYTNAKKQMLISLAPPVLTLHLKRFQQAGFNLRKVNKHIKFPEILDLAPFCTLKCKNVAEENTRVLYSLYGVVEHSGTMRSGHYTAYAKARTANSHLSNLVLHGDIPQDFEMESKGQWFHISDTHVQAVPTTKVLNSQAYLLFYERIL
Kir3.1/Kir3.4: Kir3.1/Kir3.4 (Homo sapiens, UniProt P48544+P48549)
UniProt P48544, sequence (whole entry, looked up): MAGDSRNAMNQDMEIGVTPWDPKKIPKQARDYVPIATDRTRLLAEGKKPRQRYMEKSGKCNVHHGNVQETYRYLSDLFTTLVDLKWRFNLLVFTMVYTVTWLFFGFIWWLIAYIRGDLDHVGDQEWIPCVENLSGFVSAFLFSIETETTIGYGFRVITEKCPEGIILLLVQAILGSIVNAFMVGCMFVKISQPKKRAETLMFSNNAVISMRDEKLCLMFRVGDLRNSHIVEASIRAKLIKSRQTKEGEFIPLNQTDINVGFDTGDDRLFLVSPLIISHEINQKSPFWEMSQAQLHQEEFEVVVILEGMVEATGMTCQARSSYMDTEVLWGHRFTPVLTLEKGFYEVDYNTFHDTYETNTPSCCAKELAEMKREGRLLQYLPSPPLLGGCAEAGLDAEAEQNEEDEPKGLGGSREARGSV
UniProt P48549, sequence (whole entry, looked up): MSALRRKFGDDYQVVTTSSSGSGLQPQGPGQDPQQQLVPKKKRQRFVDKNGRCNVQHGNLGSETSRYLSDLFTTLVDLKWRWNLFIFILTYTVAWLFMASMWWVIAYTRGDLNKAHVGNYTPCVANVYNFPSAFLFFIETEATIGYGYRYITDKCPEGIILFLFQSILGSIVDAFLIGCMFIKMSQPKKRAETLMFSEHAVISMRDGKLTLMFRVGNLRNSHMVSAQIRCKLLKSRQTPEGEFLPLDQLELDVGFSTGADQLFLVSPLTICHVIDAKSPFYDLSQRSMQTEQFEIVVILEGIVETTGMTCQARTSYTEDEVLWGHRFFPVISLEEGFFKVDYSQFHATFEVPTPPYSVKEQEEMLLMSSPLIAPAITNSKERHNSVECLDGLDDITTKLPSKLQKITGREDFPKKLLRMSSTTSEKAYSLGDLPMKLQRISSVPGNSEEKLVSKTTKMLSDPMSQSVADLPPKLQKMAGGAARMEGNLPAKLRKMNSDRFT
DNMT1: DNA (cytosine-5)-methyltransferase 1 (DNMT1, Homo sapiens, UniProt P26358)
UniProt P26358, sequence (whole entry, looked up): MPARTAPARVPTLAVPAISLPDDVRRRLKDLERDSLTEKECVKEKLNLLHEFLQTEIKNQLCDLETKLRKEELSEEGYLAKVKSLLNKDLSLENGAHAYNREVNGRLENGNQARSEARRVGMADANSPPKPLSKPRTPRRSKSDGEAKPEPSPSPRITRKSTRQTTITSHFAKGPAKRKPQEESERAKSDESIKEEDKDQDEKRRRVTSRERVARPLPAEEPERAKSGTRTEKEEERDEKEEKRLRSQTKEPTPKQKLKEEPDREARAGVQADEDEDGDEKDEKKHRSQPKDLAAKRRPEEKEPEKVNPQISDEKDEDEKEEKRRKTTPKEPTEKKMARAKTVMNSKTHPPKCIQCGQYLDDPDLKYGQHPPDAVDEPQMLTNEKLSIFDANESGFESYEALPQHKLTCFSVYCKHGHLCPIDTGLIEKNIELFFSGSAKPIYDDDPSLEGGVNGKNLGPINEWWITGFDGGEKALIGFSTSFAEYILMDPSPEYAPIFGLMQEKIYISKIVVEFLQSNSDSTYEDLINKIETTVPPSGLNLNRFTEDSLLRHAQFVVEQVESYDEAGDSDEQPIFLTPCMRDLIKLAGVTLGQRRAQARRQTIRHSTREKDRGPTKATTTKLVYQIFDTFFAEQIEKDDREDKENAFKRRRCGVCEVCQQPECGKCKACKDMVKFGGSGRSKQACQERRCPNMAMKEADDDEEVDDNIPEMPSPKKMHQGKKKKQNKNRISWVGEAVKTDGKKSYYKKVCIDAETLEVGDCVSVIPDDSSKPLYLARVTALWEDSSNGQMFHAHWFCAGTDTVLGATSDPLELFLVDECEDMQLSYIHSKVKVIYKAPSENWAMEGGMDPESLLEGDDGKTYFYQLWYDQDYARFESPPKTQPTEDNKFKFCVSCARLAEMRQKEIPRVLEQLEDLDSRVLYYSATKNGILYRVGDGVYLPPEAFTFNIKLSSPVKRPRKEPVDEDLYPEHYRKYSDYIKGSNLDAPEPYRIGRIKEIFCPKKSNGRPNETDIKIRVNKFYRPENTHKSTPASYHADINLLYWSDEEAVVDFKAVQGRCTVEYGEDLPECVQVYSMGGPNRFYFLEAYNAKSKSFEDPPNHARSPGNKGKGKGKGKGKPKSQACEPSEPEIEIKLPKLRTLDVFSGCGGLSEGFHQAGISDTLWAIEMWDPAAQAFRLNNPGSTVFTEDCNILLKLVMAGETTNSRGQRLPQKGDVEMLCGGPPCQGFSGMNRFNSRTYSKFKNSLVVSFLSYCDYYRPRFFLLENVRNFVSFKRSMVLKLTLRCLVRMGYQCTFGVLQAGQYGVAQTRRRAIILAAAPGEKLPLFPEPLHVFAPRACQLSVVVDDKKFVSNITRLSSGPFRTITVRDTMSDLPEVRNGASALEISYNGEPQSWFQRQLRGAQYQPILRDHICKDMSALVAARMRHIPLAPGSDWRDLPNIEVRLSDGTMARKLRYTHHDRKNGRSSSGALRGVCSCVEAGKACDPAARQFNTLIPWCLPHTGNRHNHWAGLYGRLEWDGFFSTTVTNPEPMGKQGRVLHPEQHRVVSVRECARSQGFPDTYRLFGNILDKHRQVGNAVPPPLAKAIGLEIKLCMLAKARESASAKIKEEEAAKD
UniProt Q6NT16, sequence (whole entry, unmodified, looked up): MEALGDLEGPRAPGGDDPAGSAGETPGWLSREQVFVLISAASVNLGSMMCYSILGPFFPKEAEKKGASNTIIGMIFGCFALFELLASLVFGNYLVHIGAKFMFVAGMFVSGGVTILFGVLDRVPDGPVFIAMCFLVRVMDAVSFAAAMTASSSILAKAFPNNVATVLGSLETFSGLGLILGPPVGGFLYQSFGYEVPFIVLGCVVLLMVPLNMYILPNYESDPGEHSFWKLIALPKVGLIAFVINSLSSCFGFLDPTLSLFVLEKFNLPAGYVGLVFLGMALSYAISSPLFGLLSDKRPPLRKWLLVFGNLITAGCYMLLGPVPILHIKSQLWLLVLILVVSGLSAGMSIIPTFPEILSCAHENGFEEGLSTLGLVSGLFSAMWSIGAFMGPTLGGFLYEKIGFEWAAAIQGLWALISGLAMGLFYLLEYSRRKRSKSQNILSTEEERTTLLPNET
UniProt P51589, sequence (whole entry, unmodified, looked up): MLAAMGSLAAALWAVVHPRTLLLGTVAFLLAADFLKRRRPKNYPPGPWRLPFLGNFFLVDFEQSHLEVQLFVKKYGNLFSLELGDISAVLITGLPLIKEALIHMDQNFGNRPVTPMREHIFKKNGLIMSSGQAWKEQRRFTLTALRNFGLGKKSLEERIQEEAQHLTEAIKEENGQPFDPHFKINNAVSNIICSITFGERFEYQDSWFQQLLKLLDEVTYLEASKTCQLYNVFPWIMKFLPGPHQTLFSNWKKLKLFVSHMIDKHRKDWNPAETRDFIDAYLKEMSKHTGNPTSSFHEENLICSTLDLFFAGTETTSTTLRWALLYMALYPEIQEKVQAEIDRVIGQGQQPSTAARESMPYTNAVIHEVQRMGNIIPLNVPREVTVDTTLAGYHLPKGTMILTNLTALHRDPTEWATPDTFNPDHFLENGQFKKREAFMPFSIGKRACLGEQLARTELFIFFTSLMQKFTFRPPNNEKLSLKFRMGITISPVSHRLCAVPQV
UniProt P35372, sequence (whole entry, looked up): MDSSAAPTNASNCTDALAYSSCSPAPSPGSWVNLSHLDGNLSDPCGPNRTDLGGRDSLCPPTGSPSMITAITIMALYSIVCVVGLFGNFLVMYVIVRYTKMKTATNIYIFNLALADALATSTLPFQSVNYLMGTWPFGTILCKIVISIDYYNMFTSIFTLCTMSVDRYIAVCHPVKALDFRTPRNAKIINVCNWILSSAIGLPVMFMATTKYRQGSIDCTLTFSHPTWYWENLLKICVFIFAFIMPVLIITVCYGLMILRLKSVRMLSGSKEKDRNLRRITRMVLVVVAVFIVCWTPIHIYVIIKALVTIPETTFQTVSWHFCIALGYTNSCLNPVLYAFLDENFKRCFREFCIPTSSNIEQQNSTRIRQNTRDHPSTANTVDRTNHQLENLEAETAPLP
UniProt O09061, sequence (whole entry, looked up): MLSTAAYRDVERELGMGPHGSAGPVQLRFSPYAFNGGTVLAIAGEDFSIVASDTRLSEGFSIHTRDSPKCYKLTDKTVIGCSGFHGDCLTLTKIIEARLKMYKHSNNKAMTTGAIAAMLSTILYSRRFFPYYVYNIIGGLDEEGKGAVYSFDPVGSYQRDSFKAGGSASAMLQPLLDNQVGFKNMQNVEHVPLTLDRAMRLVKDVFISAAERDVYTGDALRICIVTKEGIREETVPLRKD

O=C(O)CCn1ccccc1=O
Kd (USP16 ZnF-UBD domain): > 1000 µM

O=C(COc1ccc(Cl)cc1Cl)Nc1cc(C2CC2)nn1CC(F)(F)F
EC50 (Kir3.1/Kir3.4; activator, thallium flux; HEK293): 0.977 µM

N#Cc1ccc([C@H]2CCc3cncn32)c(F)c1
Ki (Cytochrome P450 2D6 (CYP2D6, Homo sapiens, UniProt P10635); inhibitor, item: bufuralol 1'-hydroxylation; pooled human liver microsomes; pH 7.4, together with: bufuralol): 1.97 ± 0.397 µM

O=C(O)CCOc1ccccc1
Kd (USP16 ZnF-UBD domain): > 1000 µM

CCc1cc(NC(=O)COc2ccc(Cl)cc2Cl)n(C2CCOCC2)n1
EC50 (Kir3.1/Kir3.4; activator, thallium flux; HEK293): 0.33 µM

CCCCC/C=C\C/C=C\CCCCCCCC(=O)O
Ki (Cytochrome P450 2J2 (CYP2J2, Homo sapiens, UniProt P51589, L2A); enzyme activity, competitive inhibitor; nanodiscs with CPR, together with: arachidonic acid): 46.4 ± 9.93 µM

Cc1sc2ncn(CC(=O)O)c(=O)c2c1C
Kd (USP16 ZnF-UBD domain): 579 µM

CCc1c(C#N)c(SC(C(N)=O)c2ccccc2)nc(N(C)CC(=O)NC)c1C#N (centres unmarked)
DC50 (DNMT1; degrader, Western blot; H1299; 24 h): 0.101 ± 0.011 µM

Nc1ncnc2c1ncn2[C@@H]1O[C@H](COP(=O)(O)OP(=O)(O)OP(=O)(O)O)[C@@H](O)[C@H]1O
Kd (ATP-dependent RNA helicase DDX50 (DDX50, Homo sapiens, UniProt Q9BQ39, V227W); binding, microscale thermophoresis; 25 °C, no glucose): 11.7 ± 4.13 µM

CCCOc1ccc(OC)c(F)c1C(=O)c1ccc(C(=O)N[C@@H]2CNC[C@H]2NC(=O)c2ccc3[nH]ncc3c2)cc1
remaining activity (CK1 (yeast); kinase activity; 10 µM): 57%

COc1cc2c(cc1OC)[C@H]1C[C@@H](O)[C@H](CC(C)C)CN1CC2
Kd (MFS-type transporter SLC18B1 (SLC18B1, Homo sapiens, UniProt Q6NT16, Y51A); binder; radiolabeled protein variants): 168 µM

O=C(O)Cn1cnc2c(oc3ccccc32)c1=O
Kd (USP16 ZnF-UBD domain): 344 µM

CC(C)(COP(=O)(O)OP(=O)(O)OC[C@H]1O[C@@H](n2cnc3c(N)ncnc32)[C@H](O)[C@@H]1O)[C@@H](O)C(=O)NCCC(=O)NCCS
log2 fold change (binding, MIDAS equilibrium dialysis LC-MS; A2AR-BRIL thermostabilized; concentration not given; baseline: no-protein control): -0.916

OC[C@H]1OC(O)[C@H](O)[C@@H](O)[C@@H]1O (some centres unmarked)
Ki (Hexokinase-3 (HK3, Homo sapiens, UniProt P52790, D264A/R265A); substrate inhibition; mutant D264A/R265A, partial substrate inhibition model, together with: ATP 20 mM): 5100 ± 500 µM

CCc1c(C#N)c(SC(C(N)=O)c2ccccc2)nc(N2CCC(NC(=O)C(C)(C)C)CC2)c1C#N (centres unmarked)
DC50 (DNMT1; degrader, Western blot; HCT-116; 24 h, range 0.01 to 1 µM): < 0.05 µM

Fc1ccc(N2CCNCC2COc2ccncc2)cc1 (centres unmarked)
IC50 (P2X purinoceptor 4 (P2RX4, Homo sapiens, UniProt Q99571); Ca2+ flux, antagonist; human cells expressing P2RX4; racemate tested): > 100 µM

N#Cc1ccc(COc2cccc(C3CCN(Cc4nc5ccc(C(=O)O)cc5n4C[C@@H]4CCO4)CC3)n2)c(F)c1
Ki (sodium channel): 6.8 µM

CCc1c(C#N)c(SC(C(N)=O)c2ccccc2)nc(N2CCN(C)CC2)c1C#N (centres unmarked)
DC50 (DNMT1; degrader, Western blot; HCT-116; 24 h, range 0.01 to 1 µM): > 1 µM

O=C(O)CCN1C(=O)c2ccccc2S1(=O)=O
Kd (USP16 ZnF-UBD domain): > 1000 µM

CCn1c(-c2nc3ccc(C(=O)N4CCCC(N)C4)cc3n2C)cc2ccccc21 (centres unmarked)
IC50 (Mu-type opioid receptor (OPRM1, Homo sapiens, UniProt P35372); antagonist, GTPγS binding): > 100 µM

O=C(O)CCCC(=O)O
log2 fold change (binding, MIDAS equilibrium dialysis LC-MS; A2AR-BRIL thermostabilized; concentration not given; baseline: no-protein control): -0.383

O=C(O)CCC(=O)c1ccc(S(=O)(=O)N2CCCC2)cc1
Kd (USP16 ZnF-UBD domain): 139 µM

O=C(COc1cccc(Cl)c1Cl)Nc1cc(C2CCC2)nn1C1CCC(F)(F)CC1
EC50 (Kir3.1/Kir3.4; activator, thallium flux; HEK293): 10 µM

COc1cc2ccc(=O)oc2cc1O
Ki (uncharacterized protein (Solanum tuberosum, UniProt M0ZZL3); substrate inhibition; together with: 100 µM UDP-glucose): 294 ± 91 µM

O=c1n(CCCN2CCN(c3cccc(Cl)c3)CC2)nc2ccccn12
Ki (Nociceptin receptor (OPRL1, Homo sapiens, UniProt P41146)): > 10 µM

CCc1c(C#N)c(SC(C(N)=O)c2ccccc2)nc(N2CCC(NC(C)=O)CC2)c1C#N (centres unmarked)
DC50 (DNMT1; degrader, Western blot; HCT-116; 24 h, range 0.01 to 1 µM): > 1 µM

O=C(O)CC1Oc2ccccc2NC1=O (centres unmarked)
Kd (USP16 ZnF-UBD domain): > 1000 µM

CCn1c(-c2nc3cc(C(=O)N4CCC[C@@H](N)C4)cc(OC)c3n2C)cc2cccnc21
IC50 (Protein-arginine deiminase type-4 (PADI4, Homo sapiens, UniProt Q9UM07); binding, fluorescence polarisation; together with: tracer displacement, 0.2 mM Ca2+): 0.211 µM

CC(C)C[C@H](NC(=O)[C@H](CCc1ccccc1)NC(=O)CN1CCOCC1)C(=O)N[C@@H](Cc1ccccc1)C(=O)N[C@@H](CC(C)C)C(=O)[C@@]1(C)CO1
IC50 (Proteasome subunit beta type-1/Psmb8, LMP7 subunit (Mus musculus, UniProt O09061+P28063); proteasome subunit activity; Ba/F3 BCR-ABL1 T315I; 1 h pulse): 0.00773 ± 0.0002 µM

NCCCNCCCCNCCCN
Kd (MFS-type transporter SLC18B1 (SLC18B1, Homo sapiens, UniProt Q6NT16, M48A); binder): 54 µM

Nc1nc(CC(=O)O)cs1
Kd (USP16 ZnF-UBD domain): > 1000 µM

CCc1cc(NC(=O)COc2cc(Cl)ccc2Cl)n(C2CCC(F)(F)CC2)n1
EC50 (Kir3.1/Kir3.4; activator, thallium flux; HEK293): 0.207 µM

A few entries again:
Cc1sc2ncn(CC(=O)O)c(=O)c2c1C
Kd (USP16 ZnF-UBD domain): 579 µM

O=C(O)CCOc1ccccc1
Kd (USP16 ZnF-UBD domain): > 1000 µM

Nc1nc(CC(=O)O)cs1
Kd (USP16 ZnF-UBD domain): > 1000 µM

CCc1c(C#N)c(SC(C(N)=O)c2ccccc2)nc(N2CCC(NC(C)=O)CC2)c1C#N (centres unmarked)
DC50 (DNMT1; degrader, Western blot; HCT-116; 24 h, range 0.01 to 1 µM): > 1 µM
